Published values of several laboratories.
Each line is one published result; not all experiments were run side by side. Several values in a cell are separate wells, animals, samples, runs or records.
Target: Adenosine receptor A2a (ADORA2A, Homo sapiens, UniProt P29274)

The response of `N[C@H](C(=O)N1CCCC1)C1CCN(c2nccc3c(-c4ncc(Cl)cc4Cl)cccc23)CC1` is reported as 2% (agonist, cell-based functional; 10 µM).
For `Cc1cc(-c2ccc3ccccc3c2)nnc1NCCN1CCN(C)CC1`, antagonist activity read “negative” (antagonist; concentration not given).
With `CCN(CC)CCOc1ccc(-c2nnn(Cc3ccc(OC)cc3)c2N)cc1` the inhibition was -8.98% (radioligand binding; HEK293; 10 µM, safety profiling).
`CN[C@@H]1[C@H](O)[C@H](NC)[C@H]2O[C@]3(O)[C@H](O[C@@H]2[C@H]1O)O[C@H](C)C[C@H]3NC(=O)Cc1cc(Cl)ccn1` has an inhibition of -20% (cell-free assay; 10 µM).
The inhibition of `C[C@H](NCc1ccc(-c2ccc(C(F)(F)F)cc2)cc1)C(N)=O` is reported as -2% (radioligand binding; 1 µM, with: 0.05 µM [3H]CGS-21680).
`COc1ccc(F)cc1S(=O)(=O)Nc1cnc2c(c1)C(=O)NCCO2` has an inhibition of -8% (ligand displacement, radioligand; 10 µM).
`Cc1cc(Nc2nc(C[C@@]3(C(=O)O)CCN(Cc4cccc(Cl)c4F)[C@H](C)C3)cc(C)c2F)[nH]n1` has an activation of -0.03% (agonist; 10 µM).
`O=C(O)c1ccc(-c2nc(-c3ccccc3Cl)c3sccn23)cc1` has a specific binding of 97% and 105% (radioligand binding; 10 µM, with: NECA; reference: control).
For `C[C@@H]1COCCN1c1nc(NCc2cccnc2C(F)(F)F)c2cccnc2n1`, the IC50 was over 100 µM (binding; CEREP panel).
The activation of `C/C(=N\OCCCN1CCCCC1)c1ccc(C(F)(F)F)cc1` is reported as 2.14% (agonist, cAMP; 10 µM).
`CS(C)(=O)=Nc1ccc(-c2ccc(-c3nc4cc(O[C@@H]5CO[C@H]6[C@@H]5OC[C@H]6O)[nH]c4cc3F)cc2)cc1` has an inhibition of -15% (calcium signal, antagonist; 10 µM).
For `CC(C)[C@@H](Nc1nc(Cl)nc2c1ncn2[C@H]1[C@H](O)[C@H](O)[C@]2(CF)C[C@H]12)C1CC1`, the inhibition was 73% (ligand displacement, radioligand; 10 µM).
`CCc1nnc(-c2c(OC)cc(-c3cnc4cc(-c5cnn(C)c5)ccn34)cc2OC)o1` gave a remaining binding of 91% (agonist radioligand, radioligand binding; 10 µM, SafetyScreen44 A2A replicate 2; lower = stronger displacement).
`Cc1ccc2c(n1)c(-c1cccc(S(C)(=O)=O)c1)c(C)n2C/C(F)=C/CN` has an inhibition of 1% (ligand displacement, radioligand; 10 µM).

Excerpt of the above:
For `CC(C)[C@@H](Nc1nc(Cl)nc2c1ncn2[C@H]1[C@H](O)[C@H](O)[C@]2(CF)C[C@H]12)C1CC1`, the inhibition was 73% (ligand displacement, radioligand; 10 µM).
`CCc1nnc(-c2c(OC)cc(-c3cnc4cc(-c5cnn(C)c5)ccn34)cc2OC)o1` gave a remaining binding of 91% (agonist radioligand, radioligand binding; 10 µM, SafetyScreen44 A2A replicate 2; lower = stronger displacement).
